Measured values pooled from the literature.
Numbered parts are unrelated; each lists some results of a single study. Several values in a cell are separate wells, animals, samples, runs or records.
Chain of UniProt P42685 (whole entry, looked up): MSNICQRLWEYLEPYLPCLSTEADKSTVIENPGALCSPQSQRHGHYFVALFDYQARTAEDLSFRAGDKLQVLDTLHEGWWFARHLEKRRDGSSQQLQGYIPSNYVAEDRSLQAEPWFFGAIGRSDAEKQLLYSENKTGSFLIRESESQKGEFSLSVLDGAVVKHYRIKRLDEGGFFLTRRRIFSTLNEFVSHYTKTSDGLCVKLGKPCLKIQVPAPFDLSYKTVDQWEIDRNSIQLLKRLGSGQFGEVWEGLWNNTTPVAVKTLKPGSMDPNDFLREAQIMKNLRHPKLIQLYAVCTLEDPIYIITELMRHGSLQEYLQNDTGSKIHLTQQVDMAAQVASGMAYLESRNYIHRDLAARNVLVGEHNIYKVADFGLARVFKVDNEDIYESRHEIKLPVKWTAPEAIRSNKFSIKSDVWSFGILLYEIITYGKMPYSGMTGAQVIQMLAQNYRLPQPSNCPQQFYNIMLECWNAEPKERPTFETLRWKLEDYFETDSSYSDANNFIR
Chain of UniProt Q04759 (whole entry, looked up): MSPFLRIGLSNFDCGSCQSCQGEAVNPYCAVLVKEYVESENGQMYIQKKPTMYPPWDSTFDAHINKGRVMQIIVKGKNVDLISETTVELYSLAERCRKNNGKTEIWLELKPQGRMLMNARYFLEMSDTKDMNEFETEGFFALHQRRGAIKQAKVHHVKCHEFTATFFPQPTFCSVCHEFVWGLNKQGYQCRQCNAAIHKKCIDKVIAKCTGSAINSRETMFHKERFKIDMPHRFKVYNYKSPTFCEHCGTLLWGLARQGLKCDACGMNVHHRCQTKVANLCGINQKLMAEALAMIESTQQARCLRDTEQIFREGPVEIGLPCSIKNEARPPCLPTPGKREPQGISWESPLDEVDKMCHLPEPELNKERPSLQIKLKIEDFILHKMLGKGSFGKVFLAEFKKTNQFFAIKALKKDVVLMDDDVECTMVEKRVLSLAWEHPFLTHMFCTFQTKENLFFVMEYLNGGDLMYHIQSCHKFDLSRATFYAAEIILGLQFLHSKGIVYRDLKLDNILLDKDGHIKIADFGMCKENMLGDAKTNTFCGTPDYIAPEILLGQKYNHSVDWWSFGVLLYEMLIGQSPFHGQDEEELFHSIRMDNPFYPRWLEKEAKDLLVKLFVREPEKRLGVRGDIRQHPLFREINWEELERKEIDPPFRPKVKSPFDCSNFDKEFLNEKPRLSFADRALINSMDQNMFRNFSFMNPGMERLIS

Series 1 — observed: enzyme activity; action: inhibitor; tested at: 0.5 µM; reference: control
Target: Ribosomal protein S6 kinase alpha-3 (RPS6KA3, Homo sapiens, UniProt P51812)
Chain of UniProt P51812 (whole entry, looked up): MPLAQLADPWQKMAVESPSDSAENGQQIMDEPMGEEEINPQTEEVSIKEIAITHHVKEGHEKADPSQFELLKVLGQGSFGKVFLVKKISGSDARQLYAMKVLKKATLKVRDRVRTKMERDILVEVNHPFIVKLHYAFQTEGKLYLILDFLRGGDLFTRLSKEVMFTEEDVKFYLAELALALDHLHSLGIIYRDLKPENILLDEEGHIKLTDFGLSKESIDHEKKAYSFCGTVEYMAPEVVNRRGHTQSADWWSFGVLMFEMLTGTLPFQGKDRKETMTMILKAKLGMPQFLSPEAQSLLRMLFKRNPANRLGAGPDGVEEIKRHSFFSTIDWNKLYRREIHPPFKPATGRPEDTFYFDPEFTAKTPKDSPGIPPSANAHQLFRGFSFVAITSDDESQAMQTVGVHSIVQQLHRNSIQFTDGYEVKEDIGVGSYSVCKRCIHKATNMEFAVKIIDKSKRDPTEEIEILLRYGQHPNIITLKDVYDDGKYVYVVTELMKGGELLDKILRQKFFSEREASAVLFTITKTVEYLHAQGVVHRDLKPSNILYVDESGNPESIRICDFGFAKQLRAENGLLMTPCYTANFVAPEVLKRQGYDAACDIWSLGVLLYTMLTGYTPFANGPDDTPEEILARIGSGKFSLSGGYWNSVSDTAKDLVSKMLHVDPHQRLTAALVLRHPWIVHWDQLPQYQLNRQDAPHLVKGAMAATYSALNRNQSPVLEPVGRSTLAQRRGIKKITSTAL
For `COc1ccc(C(=O)Nc2sc3c(c2C(N)=O)CCCC3)cc1OC`, the remaining activity was 93%.
With `CO[C@H]1C[C@@H]2CC[C@@H](C)[C@@](O)(O2)C(=O)C(=O)N2CCCC[C@H]2C(=O)O[C@H]([C@H](C)C[C@@H]2CC[C@@H](O)[C@H](OC)C2)CC(=O)[C@H](C)/C=C(\C)[C@@H](O)[C@@H](OC)C(=O)[C@H](C)C[C@H](C)/C=C/C=C/C=C/1C` the remaining activity was 105%.
For `Cc1nc(-c2ccccc2)c(-c2ccncc2)o1`, the remaining activity was 103%.
`Oc1ccc(-c2nc(-c3ccncc3)c(-c3ccc(F)cc3)[nH]2)cc1` has a remaining activity of 96.1%.
The remaining activity of `Cc1ccc(NC(=O)c2ccc(CN3CCN(C)CC3)cc2)cc1Nc1nc(-c2cccnc2)cs1` is reported as 93.6%.
For `O=C(CCCc1ccc(-c2ccccc2F)cc1)Nc1ccc(O)cc1`, the remaining activity was 95.8%.
`CN(C)c1ccc(C=C2C(=O)Nc3ccccc32)cc1` has a remaining activity of 92.6%.
For `COc1ccc(OC)c2c(=S)c3ccccc3[nH]c12`, the remaining activity was 108%.
For `O=C1NC(=O)C(c2cn(CCCn3ccnc3)c3ccccc23)=C1Nc1ccccc1`, the remaining activity was 3.85%.
`COc1cc2nccc(Oc3ccc(NC(=S)NC(=O)c4ccccc4C)cc3)c2cc1OC` gave a remaining activity of 86.9%.
For `CCOC(=O)c1c(C)[nH]c(/C=C2\C(=O)Nc3ccccc32)c1C`, the remaining activity was 86.4%.
For `N#CC(C#N)=C(N)/C(C#N)=C/c1ccc(O)cc1`, the remaining activity was 94.6%.
`Nc1ccc2ncnc(NCCc3ccc(Oc4ccccc4)cc3)c2c1` gave a remaining activity of 101%.
With `CC(C)[C@H](CO)Nc1nc(Nc2cc(N)cc(Cl)c2)c2ncn(C(C)C)c2n1` the remaining activity was 54.1%.

Series 2 — observed: enzyme activity; action: inhibitor; tested at: 77 µM; reference: untreated
Target: DNA polymerase theta, ATPase domain (POLQ, Homo sapiens, UniProt O75417)
Chain of UniProt O75417 (whole entry, unmodified, looked up): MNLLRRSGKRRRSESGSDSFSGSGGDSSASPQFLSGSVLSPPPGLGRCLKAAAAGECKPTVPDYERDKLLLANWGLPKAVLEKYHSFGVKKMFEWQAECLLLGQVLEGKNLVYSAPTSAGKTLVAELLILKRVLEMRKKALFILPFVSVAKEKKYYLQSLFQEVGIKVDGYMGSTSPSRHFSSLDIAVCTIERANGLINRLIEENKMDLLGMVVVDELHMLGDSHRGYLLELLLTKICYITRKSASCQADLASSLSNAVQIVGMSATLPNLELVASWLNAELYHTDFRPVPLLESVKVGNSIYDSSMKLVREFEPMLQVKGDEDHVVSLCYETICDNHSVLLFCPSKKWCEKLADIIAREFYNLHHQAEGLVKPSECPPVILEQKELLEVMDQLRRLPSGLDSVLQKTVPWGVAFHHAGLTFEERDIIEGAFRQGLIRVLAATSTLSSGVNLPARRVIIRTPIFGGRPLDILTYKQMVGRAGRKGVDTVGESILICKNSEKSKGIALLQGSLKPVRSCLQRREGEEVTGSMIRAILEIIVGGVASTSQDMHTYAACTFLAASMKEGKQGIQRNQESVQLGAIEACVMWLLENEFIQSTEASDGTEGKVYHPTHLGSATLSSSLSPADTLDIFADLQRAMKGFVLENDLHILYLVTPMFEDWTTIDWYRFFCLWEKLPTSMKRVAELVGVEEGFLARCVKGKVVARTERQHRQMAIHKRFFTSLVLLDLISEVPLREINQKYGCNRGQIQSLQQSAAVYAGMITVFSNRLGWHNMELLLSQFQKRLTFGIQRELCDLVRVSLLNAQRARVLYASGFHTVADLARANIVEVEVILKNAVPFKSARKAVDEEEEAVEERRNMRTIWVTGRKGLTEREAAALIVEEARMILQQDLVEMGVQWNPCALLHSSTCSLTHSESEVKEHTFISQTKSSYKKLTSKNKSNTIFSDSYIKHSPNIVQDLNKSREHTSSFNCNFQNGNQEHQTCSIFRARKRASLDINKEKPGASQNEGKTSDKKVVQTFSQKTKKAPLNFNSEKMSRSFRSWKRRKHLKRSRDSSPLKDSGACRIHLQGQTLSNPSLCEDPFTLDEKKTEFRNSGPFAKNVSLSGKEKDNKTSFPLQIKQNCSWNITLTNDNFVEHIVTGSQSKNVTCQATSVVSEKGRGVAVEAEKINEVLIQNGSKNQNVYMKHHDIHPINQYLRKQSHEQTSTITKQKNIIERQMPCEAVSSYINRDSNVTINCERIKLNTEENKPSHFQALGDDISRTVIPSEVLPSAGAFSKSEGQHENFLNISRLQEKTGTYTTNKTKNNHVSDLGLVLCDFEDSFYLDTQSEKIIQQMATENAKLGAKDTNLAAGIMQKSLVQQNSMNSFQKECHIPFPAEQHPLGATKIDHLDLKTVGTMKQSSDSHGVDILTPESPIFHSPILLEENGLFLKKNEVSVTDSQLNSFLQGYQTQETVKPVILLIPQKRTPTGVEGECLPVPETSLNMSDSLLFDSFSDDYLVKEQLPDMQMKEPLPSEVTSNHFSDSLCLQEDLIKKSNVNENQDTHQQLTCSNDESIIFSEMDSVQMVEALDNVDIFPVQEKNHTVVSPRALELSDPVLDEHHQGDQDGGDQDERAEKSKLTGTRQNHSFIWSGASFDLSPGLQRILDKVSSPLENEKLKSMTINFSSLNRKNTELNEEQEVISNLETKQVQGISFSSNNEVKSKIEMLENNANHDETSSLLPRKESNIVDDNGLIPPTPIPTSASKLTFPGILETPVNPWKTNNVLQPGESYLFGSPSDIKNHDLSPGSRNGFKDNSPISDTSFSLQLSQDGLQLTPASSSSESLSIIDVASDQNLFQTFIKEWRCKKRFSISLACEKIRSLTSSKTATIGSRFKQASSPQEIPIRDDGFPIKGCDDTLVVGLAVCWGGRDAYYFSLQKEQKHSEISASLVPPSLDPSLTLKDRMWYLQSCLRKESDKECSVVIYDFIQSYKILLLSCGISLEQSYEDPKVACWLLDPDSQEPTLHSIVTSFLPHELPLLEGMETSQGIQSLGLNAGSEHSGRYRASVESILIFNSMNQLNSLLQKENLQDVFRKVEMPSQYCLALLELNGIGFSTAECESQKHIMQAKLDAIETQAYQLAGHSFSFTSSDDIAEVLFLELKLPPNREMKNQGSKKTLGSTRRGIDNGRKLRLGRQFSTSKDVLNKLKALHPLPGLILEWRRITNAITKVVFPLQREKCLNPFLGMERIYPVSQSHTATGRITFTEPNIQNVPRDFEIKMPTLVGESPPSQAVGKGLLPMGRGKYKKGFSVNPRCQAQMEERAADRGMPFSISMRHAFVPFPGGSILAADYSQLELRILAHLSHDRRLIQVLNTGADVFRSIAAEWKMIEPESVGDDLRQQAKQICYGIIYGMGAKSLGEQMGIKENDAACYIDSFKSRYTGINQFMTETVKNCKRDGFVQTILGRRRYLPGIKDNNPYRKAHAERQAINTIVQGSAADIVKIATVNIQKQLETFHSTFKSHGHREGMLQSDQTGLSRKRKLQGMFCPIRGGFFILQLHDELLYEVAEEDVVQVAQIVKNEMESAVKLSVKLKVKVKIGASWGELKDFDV
`COCCOc1ccc2c(c1)ncn2-c1ccc2cccc(N3CCC(N)CC3)c2n1` gave a remaining activity of 91.9%.
`CCOC(=O)c1ccc(N)cc1` has a remaining activity of 94.4% and 102%.
The remaining activity of `CCCCC(CC)CNC(=N)NC(=N)NCCCCCCNC(=N)NC(=N)NCC(CC)CCCC` (centres unmarked) is reported as 102%.
`CN(CCCCCCCCCCN(C)C(=O)Oc1cccc([N+](C)(C)C)c1)C(=O)Oc1cccc([N+](C)(C)C)c1` has a remaining activity of 103%.
`O=c1ccn([C@@H]2O[C@H](COP(=O)(O)OP(=O)(O)O)[C@@H](O)[C@H]2O)c(=O)[nH]1` gave a remaining activity of 105%.
The remaining activity of `O=C(CCCCCN1CCN(c2ccccc2-c2ccccc2)CC1)NC1CCCc2ccccc21` (centres unmarked) is reported as 101%.
With `COc1ccc2cc(-c3nc(-c4ccc([S+](C)[O-])cc4)[nH]c3-c3ccncc3)ccc2c1` (centres unmarked) the remaining activity was 95.4%.

Series 3 — action: antagonist
Target: Beta-1 adrenergic receptor (ADRB1, Homo sapiens, UniProt P08588)
Chain of UniProt P08588 (whole entry, looked up): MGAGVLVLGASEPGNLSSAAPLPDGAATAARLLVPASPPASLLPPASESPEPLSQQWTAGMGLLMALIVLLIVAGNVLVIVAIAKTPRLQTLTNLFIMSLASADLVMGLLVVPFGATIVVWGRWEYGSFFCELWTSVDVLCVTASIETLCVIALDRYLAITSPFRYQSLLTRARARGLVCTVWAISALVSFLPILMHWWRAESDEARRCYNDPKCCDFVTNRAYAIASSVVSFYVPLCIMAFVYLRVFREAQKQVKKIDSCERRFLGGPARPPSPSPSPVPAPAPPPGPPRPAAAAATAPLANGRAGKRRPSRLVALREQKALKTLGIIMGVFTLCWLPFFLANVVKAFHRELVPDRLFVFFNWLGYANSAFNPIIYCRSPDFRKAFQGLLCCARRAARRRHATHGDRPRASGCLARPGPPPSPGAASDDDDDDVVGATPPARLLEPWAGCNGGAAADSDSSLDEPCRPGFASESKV
`CC(C)(CO)NCC(O)c1ccccc1` (centres unmarked) gave an IC50 of no less than 100 µM.
`Cc1ccc2c(C(=O)N3CCCC3C)cc(-c3cnn(C)c3)nc2c1` (centres unmarked) has an IC50 of no less than 100 µM.
With `Cn1c(C(O)C(O)c2ccccc2)nc2ccccc21` (centres unmarked) the IC50 was no less than 100 µM.
With `Cc1cc(C)n(-c2ccc(=O)n(C3CCN(c4ccc5ccccc5n4)CC3)n2)n1` the IC50 was no less than 100 µM.
`CC(=O)N1CCN(c2ncccc2-c2cc(-c3ccccc3)nc3c(C)noc23)CC1` gave an IC50 of no less than 100 µM.
`c1ccc2c(CCNCc3ccc(-n4ccnc4)cc3)c[nH]c2c1` has an IC50 of no less than 100 µM.
The IC50 of `COc1ccccc1OCCNCC(O)CCOc1cccc2[nH]c3ccccc3c12` (centres unmarked) is reported as 25.1 µM.
`CC(O)c1ccc(N2CCN(C(O)[C@H](Cc3ccc(N(C)[S+](=O)([O-])c4cccc5cnccc45)cc3)N(C)C)CC2)cc1` (some centres unmarked) gave an IC50 of no less than 100 µM.
`COC(=O)CCC(=O)N[C@@H](C)C(=O)N[C@@H](C)C(=O)N1CCC[C@H]1C(=O)N[C@H](C(=O)Nc1ccc2c(C)cc(=O)oc2c1)C(C)C` has an IC50 of no less than 100 µM.
For `CC(O)CN1CCN(c2cnc3ccccc3n2)C(C)C1` (centres unmarked), the IC50 was no less than 100 µM.
The IC50 of `CCOc1nccn2c(-c3ccc(CNCC(O)CO)cc3)cnc12` (centres unmarked) is reported as no less than 100 µM.
`O=C(COc1ccccc1)Nc1ccc([C@@H](O)[C@H]2COCC(=O)N2Cc2ccc(F)cc2)cc1` has an IC50 of no less than 100 µM.
With `Cc1noc2c(-c3ccc([S+](C)(=O)[O-])cc3)cc(-c3ccc(F)cc3)nc12` the IC50 was no less than 100 µM.

Series 4 — tested at: 1 µM
Compound: COc1ccc2cc(OCC3(C(=O)O)CN(C(=O)c4ccc(F)cc4)C3)ccc2c1
The remaining binding was 84% (PIP5K1C (Homo sapiens, UniProt O60331); cell-free assay, competition with immobilised ligand).
It gave 100% for remaining binding (FRK (Homo sapiens, UniProt P42685); cell-free assay, competition with immobilised ligand).
The remaining binding was 100% (PRKCQ (Homo sapiens, UniProt Q04759); cell-free assay, competition with immobilised ligand).
CDKL2 (Homo sapiens, UniProt Q92772); cell-free assay, competition with immobilised ligand — remaining binding: 89%.
For MUSK (Homo sapiens, UniProt O15146); cell-free assay, competition with immobilised ligand: remaining binding read 72%.
For SLK (Homo sapiens, UniProt Q9H2G2); cell-free assay, competition with immobilised ligand: remaining binding read 85%.
It gave 82% for remaining binding (PLK4 (Homo sapiens, UniProt O00444); cell-free assay, competition with immobilised ligand).
DYRK2 (Homo sapiens, UniProt Q92630); cell-free assay, competition with immobilised ligand — remaining binding: 84%.
It gave 100% for remaining binding (PIK3C2G (Homo sapiens, UniProt O75747); cell-free assay, competition with immobilised ligand).
It gave 91% for remaining binding (CDC42BPG (Homo sapiens, UniProt Q6DT37); competition binding).

Repeated from above (series 1):
`Oc1ccc(-c2nc(-c3ccncc3)c(-c3ccc(F)cc3)[nH]2)cc1` has a remaining activity of 96.1%.
The remaining activity of `Cc1ccc(NC(=O)c2ccc(CN3CCN(C)CC3)cc2)cc1Nc1nc(-c2cccnc2)cs1` is reported as 93.6%.
With `CC(C)[C@H](CO)Nc1nc(Nc2cc(N)cc(Cl)c2)c2ncn(C(C)C)c2n1` the remaining activity was 54.1%.
For `COc1ccc(C(=O)Nc2sc3c(c2C(N)=O)CCCC3)cc1OC`, the remaining activity was 93%.
For `O=C1NC(=O)C(c2cn(CCCn3ccnc3)c3ccccc23)=C1Nc1ccccc1`, the remaining activity was 3.85%.
For `N#CC(C#N)=C(N)/C(C#N)=C/c1ccc(O)cc1`, the remaining activity was 94.6%.
`Nc1ccc2ncnc(NCCc3ccc(Oc4ccccc4)cc3)c2c1` gave a remaining activity of 101%.
